# Experimental data of several laboratories.
# A part holds a random share of what one study measured.

# Sample 1
# Target: Fragile X messenger ribonucleoprotein 1, C-terminal low-complexity region (Fmr1, Mus musculus, UniProt P35922)
# Method: RNA Bind-n-Seq
# Molecule type: RNA
# Sample: in vitro
# Concentration: 200 nM
# Setting: whole 134-nt RNA, ends assumed
# Added: 150 mM LiCl
# Baseline: input library
# Direction: higher = stronger binding
# Library: 7-deaza-guanosine replaces G
# Shared flanks, not repeated: GGGAGUUCUACAGUCCGACGAUC … UGGAAUUCUCGGGUGUCAAGG
Sequence,log2 enrichment
CUGUGCUACACAUCGUAUGUACCGAAUCGGGGAAAAAAAGGGGAAAGGGGUUUUUUUGGGGAAAGUAUUAUGUUACGCCGUUCGGAUCUG,-0.934
AGUCCUGUGCUACACAUCGUAUGUACCGAAUCGGGUUUUUGGGUUUGGGAAAAAGGGAAAGUAUUAUGUUACGCCGUUCGGAUCUGCACU,-2.14
CCUCAAGUCCUGUGCUACACAUCGUAUGUACCGAAUCGGGUGGGUGGGGUGGGAAAGUAUUAUGUUACGCCGUUCGGAUCUGCACUUCCA,-1.07
GCAGGAAGUAAAAACAAAAAGAAAUGCUUCGGAUAGUGGCAGGGGUGGGGGUUGCUAAGGAAAGGGUGGGAUGGGAGUGGGUAAAGAGUU,1.06
GCAGGAAGUAAAAACAAAUGGAAAUGCUUCGGAUAGUGGCAGAAAUGGGGGUUGCUAAGGAAAGGGUGGGAUGGGAGUGGGUAAAGAGUU,1.36
CACAGACAACACGCACCCACACAGACACAGAGGGAAGGGGUUGGGAUGGGGACAGGGUGCACCGCAGGGCGGGGUAGGACCCCAGCCCCU,0.448
CACAGACAACACGCACCCACACAGACACAGAGGGAAGGGGUUGGGAUGGGGACAGGGUGCACAGCAGGGCCGGGUAGGACCCCAGCCCCU,0.294
UGGGAGGUGGAUUUUGUUUAUUUUUUUAGCUCAUUUCCAGGGGUGGGAAUUUAUUUUUAAUAUGUGUCAUGAAUAAAGUUGUUUUUGAAA,-0.0224
ACCAUGCAGGUGGGCAUCUUUGGGAAGUGGGGCAAGGGGGGGAUAGGGAGGGGGGUAACACUUUGGGAACAGGUGGUCAAAGGUCGUUUC,1.26
GCAGGAAGUAAAGACAAAUGGAAAUGCUUCGGAUAGUGGCAGGGGUGGGGGUUGCUAAGGAAAGGGUGGGAUGGGAGUGGGUAAAGAGUU,1.44
UCCUGUGCUACACAUCGUAUGUACCGAAUCGGGUUUUUGGGAAAAAAAGGGAAAAAGGGAAAGUAUUAUGUUACGCCGUUCGGAUCUGCA,-1.62

# Sample 2
# Target: Histone acetyltransferase KAT6A, both winged helices, GST fusion (KAT6A, Homo sapiens, UniProt Q92794, residues 1-181)
# Method: protein binding microarray
# Molecule type: double-stranded DNA, one strand shown
# Sample: in vitro
# Concentration: not given
# Setting: 8-mer, flanks averaged, mean of 2 arrays, mostly near background
# Baseline: not given
# Direction: higher = stronger binding
# Target sequence (chain): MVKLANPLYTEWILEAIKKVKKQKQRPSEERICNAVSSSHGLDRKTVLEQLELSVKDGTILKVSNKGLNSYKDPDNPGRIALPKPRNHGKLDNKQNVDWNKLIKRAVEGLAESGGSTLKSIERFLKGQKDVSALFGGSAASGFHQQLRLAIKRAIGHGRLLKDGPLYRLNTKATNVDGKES
Sequence,E-score
ACGGAAAC,0.345
CCCCCCAA,-0.157
AGGTGGCG,-0.0327
GACAGCTC,-0.052
GGGGTGTA,0.00129
CGATCTCA,-0.0433
AAACAGCA,-0.0584
TGCACAAA,-0.134
AGTATCTA,-0.0714
AGGGTACG,-0.0349
GCCGGCTA,0.269
AGCGCAAT,0.232
AAGTGGGC,-0.043
ACTCTTTG,-0.115
AGGTAATC,-0.0992
GGCAATCA,-0.0291
CGTGTGGA,-0.0487
GGTAACCA,-0.0395
CACTCACG,0.0842
TAATGTCA,-0.169
ATACCAAT,-0.146
ACATTTTC,-0.0197
ATTATATA,-0.00915
ATAATAGC,-0.0125
ACCCGTGA,0.21

# Sample 3
# Target: RING finger protein unkempt homolog, zinc fingers 1-6, GST-SBP tag (UNK, Homo sapiens, UniProt Q9C0B0, residues 30-357)
# Sequence of UniProt Q9C0B0 (30-357, looked up): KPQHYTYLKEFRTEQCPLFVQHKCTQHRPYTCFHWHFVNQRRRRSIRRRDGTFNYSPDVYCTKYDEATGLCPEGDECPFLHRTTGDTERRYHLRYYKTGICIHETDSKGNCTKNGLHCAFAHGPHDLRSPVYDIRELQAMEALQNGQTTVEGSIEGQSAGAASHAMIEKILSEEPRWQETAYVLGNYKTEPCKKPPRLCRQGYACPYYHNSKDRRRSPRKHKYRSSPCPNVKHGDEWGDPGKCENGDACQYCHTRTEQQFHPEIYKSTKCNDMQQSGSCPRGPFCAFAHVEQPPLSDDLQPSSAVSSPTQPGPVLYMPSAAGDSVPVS
# Method: RNA Bind-n-Seq
# Molecule type: RNA
# Sample: in vitro
# Concentration: not given
# Setting: RNA with constant flanks, human-mouse chimeric sites, ends assumed
# Baseline: input RNA pool
# Direction: higher = stronger binding
# Shared flanks, not repeated: GGGAGUUCUACAGUCCGACGAUC … CAACAGAGGAUUGAGCAUCA
Sequence,bound/input enrichment [ratio]
UUUCUACUGCAGCAAACGAUGCUAAGAAUUAAGGAUCCUAAGAAGUCCCUGGAUUUUUAUACGAGGGUUCUUGGACUGACGCUAAUCCAGAAGCUUGACUUCCCUGCUAUGAAGUUUUCG,0.126
AAAUCGUGUGUGUCCAAUAUUGAAAGUACUUUAUCUGCACUCCAGUAUGUAAGCAGCAUAGUAGUUUCUUUAGAGAAUAGGUCAGCCAUUGUAAAGUACAAUGCAAGCUUAGUCACUCCA,1.95
UGUGAACUGUCUCUUGAGAUCUAAAAACAAGAUGACUUUUCCUGGCACAUAUUUCAAAGCAAAGACUUUGUUGCCUGCUGCUUCUUGUCUAAUUUACAGGGAUAUUUAAUUUUGUCAGGU,0.123
ACACAAUAUGAGACCAACAGCAUGGACUUCAAAGUUGGGGCGGAUGGGACAGUCUUCGCCACUAGGGAGCUGCAGGUCCCCUCCGAGCAGGUGGCGUUCACGGUGACUGCAUGGGACAGC,0.328
CUGAGGAAUACCACUGAGAGACCUUAAAAGAAUCAUUUGAGGGCUCUGUUCGUGCAAGAAUAGUCACUGAUCGGGAAACUGGUUCUUCCAAAGGGUUUUGGUUUUGUGACUUUAAUAGUG,0.413
GCUCCUCCCCGCUCUGCAGCCUGGGGACACUGGGCUGGGACCAGAAUCUUAUUUUUUUUUAAAACUCUCAGUGUAACUUCUUUUUCUGACAUUUCAUUUUUUUUAAAUAGUGUAUUUUUU,9.85
AUGGAACAUUUCGAUGCAUCACUUAGUACCUAUUUCAAGGCCUUCCUGGGCCCCCGAGAUACUAGAGUCAAAGGAUGGUUCCUCCUGGACAAUUACAUCCCUACGUUUGUCUGUUCUGUU,0.252
GCAGGAUCUUCUAAGUACCAGUGGGACAUUAUGAAAUCCCUUGGCCUCUCUGAUGACGACAUAGUGAAGUUUUCUGAAGCAGAGCACUGGCUUGAUUAUUUCCCACCACUGGCUAUUCAG,0.142
GUUGCCAGCUUCCGGUUCCGUUGGGCUCGGUUCUCUCCUGAGCUACGGUCCCUGGCACUCUCAAUCCGCCAUCCAACGGCAGUCAUGCAGGUAAUGCAGUUUGUGGAGCCCAGCCGGCAG,0.115
UUUCUAUUGCAGCAAACGAUGCUAAGAAUUAAGGAUCCUAAGAAGUCACUGGAUUUUUAUACGAGGGUUCUUGGACUGACCCUCCUGCAGAAGCUUGACUUCCCUGCUAUGAAGUUCUCG,0.181
AAAGAGUGGAUAGAGUGUGCACAUGGAAUCGGUGGGACCCGGGCGAAAAAGGAGUGCAAGAUAGAGUUCGAUGACUUCGAAGAGUGCUUGCUUCGGUACAAAACGAUGAGACGUGCACAU,0.216

# Sample 4
# Target: RNA binding protein fox-1 homolog 2, RRM domain, GST-SBP tag (RBFOX2, Homo sapiens, UniProt O43251-10, residues 100-194)
# Method: RNA Bind-n-Seq
# Molecule type: RNA
# Sample: in vitro
# Concentration: 365 nM
# Setting: natural RNA segment, single round, ends assumed
# Baseline: no-protein control
# Direction: higher = stronger binding
# Shared flanks, not repeated: GGGAGUUCUACAGUCCGACGAUC … UGGAAUUCUCGGGUGCCAA
# Target sequence (chain): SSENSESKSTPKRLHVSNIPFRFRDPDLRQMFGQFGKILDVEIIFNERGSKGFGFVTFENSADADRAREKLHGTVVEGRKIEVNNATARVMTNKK
Sequence,RBNS enrichment (R)
GAUGCCAUUUGGCAGCUUAAGCACAUCCUGCCAGCAGGCUUUAAGUGGCUGUUCUAGGCAUAGCCCUCCCUGAACUAGAAAGGAGAGUAACCAGUUUGCUAUGCUGCAUC,0.445
UGCUUUCUGUAAUUGCACUGUGGAUAAAUGUUCCGAGAGUCUCCAUUGUUGUACAGGAUCUUCAGUUAUUCGAGGGGAAUGAGGCAGGUCAAGCCGAUGCUAGCCACUAG,0.927
UCAACAAAUGCUCUAACCUUCUAGAGACAAAAGUCCUAUUUCUGUUUUCUUUUGUCUUUUUAUUUUCAAUUAGUGACCCAUUGUUAAAUCCAAAUCCACUUUUACUGAAA,0.659
CAAAGGCUAUGCUUGCCUCCGGCUGAGUGCCUGGGAUAGGCCUUUUCUAUGUCUCCCCAAGGCUGGGGUGCUGAGCCUGCCUUCCUCACCACCUAGCCAUAGUCUCAAAC,0.893
GCUCCCCUCCCCACCCUCCUCUUCUUUGCAAAACAGACCCAAGCAGGGCAGGCUCAGACCACUCGCUUCUUUCAGAUCUUUCUUGCAAUUAUGAUAACAUGAGAUUUGCU,0.656
AACCCCUCCUUUUUGAACUUACUGUGACAAGCACAGGAACGGUCAGAAACUGGGCUCAUCACACCAAGGCAAAGCAACGGGCGAGUCUUCCUCCUUGUCCUAGUUACUGC,0.201
UGGCAACUGUGAGUCCCUGCUUCCCGACACCAGCCUCAUGGAAUAUGCAACAACUCCUGUACCCCAGUCCACGGUGUUCUGGCAGCAGGGACACCUGGGCCAAUGGGCCA,0.686
UCCCCAGGACUCUCGUAGGAAAUAAAUAGCCCUUUCAAGAUUCCUCAGCUGCCUCACCCCCUGCACAUGUGCCUGGGGUGUGGCCUAGAAGGGAGUGAUGUUCUUACUCU,0.199
GUAUGAUAAAGAUGAUCUAAUUUGUGAAUGCAUAUGUAUGUGUGGUUACUUUUUAUAAUGUGAAAUAAUGAAUAAUGAAUUUACUCAAAAUAAAACAUAGGUUAAUGAGA,1.88
GCUGCGCUGAGUGAGUUAUGAGGUGCCUUUCCCGGAACCCUCCUCUCGCCUGGACCCAAGAGAGGCGACAGCUGUGGCUGGGGCUCUUGGUUUCCAGAGGGUCUGGACUG,0.473
CAGAAGAUGGGCUGCCUGUGGUCAGGACAGGGCAUACCAGUCUGGACUCCACCUUCCCAGACACCUACUUUAAGGACCUGUGGAAACUGGGUGAUCCAAUUAUAGGGCUG,0.376
CAGUCACAGACGUCGCUUCCUGGGAUUCCAGCACGAUGCCUCCAUAGUUGAAAGACUACACAAAAAGCCACAAUCAUUGCCCGGCCUCCUGAGUCACCUUCUAUCUAUAC,3.14

# Repeated from above (sample 2):
Sequence,E-score
TGCACAAA,-0.134
AGTATCTA,-0.0714
AGGGTACG,-0.0349
GCCGGCTA,0.269
